Results gathered from unrelated publications.
Lines come from different studies, so protocols differ.
Target: Serine/threonine-protein kinase TAO2 (TAOK2, Homo sapiens, UniProt Q9UL54)

Compound	test	test system	conditions	how to read	quantity	result
CNC1C[S+]2CC[S+]3CC[S+](C1)[Ru-4]321([N]=C=S)[n]2c3ccc(OC)cc3c3c4c(c5cc(F)c[n+]1c5c32)C(=O)NC4=O (centres unmarked)	KinomeScan	–	0.1 µM	reference: untreated	remaining binding	100%
O=C(Cc1ccc(OCc2ccccc2)cc1)NC1(C(=O)O)CCN(C(=O)c2ccc(-c3cccc(Cl)c3)cc2)CC1	enzyme activity, inhibitor	–	10 µM	–	activity vs control	89%
C=CC(=O)Nc1cccc(-c2cnc3[nH]cc(C(=O)NC(C)(C)C)c3n2)c1	enzyme activity, inhibitor	–	0.1 µM	–	inhibition	6%
C=CC(=O)N1CCCC(n2c(=O)c3ncccc3n(Cc3ccc(Oc4ccccc4)cc3)c2=O)C1 (centres unmarked)	cell-free assay, competition with immobilised ligand	–	1 µM	–	remaining binding	99%
C=CC(=O)Nc1cc(-c2nn(C3CCN(CCNC(=O)[C@H](C)CCC45CC6CC(CC(C6)C4)C5)CC3)c3ncnc(N)c23)ccc1Oc1ccccc1	inhibitor, KiNativ profiling	biochemical	2 µM	–	inhibition	13.6%
COc1cc(Nc2nccc(-c3cnn4nc(OC)ccc34)n2)cc(C(F)(F)F)c1	binding, competition with immobilised ligand	–	1 µM	–	remaining binding	86%
CN1CC[C@@H](COc2cnc(C#N)cc2-c2ccn3nc(NC(=O)C4CC4)cc3c2)C1	enzyme activity, inhibitor	–	1 µM	–	inhibition	1%
CN1CCN(Cc2ccc(-c3ccc(CO[C@H]4CCC[C@@H]4NC(=O)c4cc(-c5cnn(C)c5)cnc4N)cc3)cc2)CC1	SelectScreen kinase profiling	–	0.1 µM	–	inhibition	12%
COc1c(OCCCN2CCOCC2)ccc2c1N=C(NC(=O)c1cnc(N)nc1)N1CCN=C21	kinase activity, inhibitor	–	1 µM	reference: untreated control	remaining activity	107%
Cc1cccc(O[C@H]2CCC[C@@H](C(C)CNCc3ccncc3)C2)c1 (relative stereo)	enzyme activity, inhibitor	–	1 µM	–	inhibition	-3%
COc1ccc(C(=O)/C=C/c2ccccc2-c2c[nH]c3ccc(C#N)cc23)c(O)c1	enzyme activity, inhibitor	–	20 µM	–	inhibition	-3%
C=CC(=O)N1CCc2ccc(-n3c(=O)ccc4cnc5ccc(-c6cnn(C)c6)cc5c43)cc21	KINOMEscan	–	1 µM	reference: DMSO control	remaining binding	88%
C=CC(=O)N1Cc2nc(-c3cc(-c4cc(Cl)cnc4Cl)c(F)cc3F)n(-c3ccncn3)c2C1	kinome panel	–	1 µM	–	inhibition	3.9%
CCN1CCN(Cc2ccc(C(=O)Nc3ccc(C)c(NCc4cnc5[nH]ccc5c4OC)c3)cc2C(F)(F)F)CC1	binding, competition with immobilised ligand	–	1 µM	–	remaining binding	53%
CC(C)=CC1OC(C)(C)C2C=C3C(=O)C(Cl)=CC(O)C3C3C(O)C4OC4C(=O)C132 (centres unmarked)	cell-free assay, competition with immobilised ligand	–	10 µM	–	remaining binding	66%
Cc1ccc(-c2c(/C=C(\C#N)C(=O)NC(C)C)n(CCCO)c3ncnc(N)c23)cc1	cell-free assay, competition with immobilised ligand	–	1 µM	–	remaining binding	100%
NC(=O)C[C@H]1CCc2sc3ncnc(O[C@H]4CC[C@H](N5CCOCC5)CC4)c3c21	radioisotope kinase	–	10 µM	–	inhibition	0%

For quick reference, copied from above:
Compound	test	test system	conditions	how to read	quantity	result
C=CC(=O)N1CCc2ccc(-n3c(=O)ccc4cnc5ccc(-c6cnn(C)c6)cc5c43)cc21	KINOMEscan	–	1 µM	reference: DMSO control	remaining binding	88%
